Results collected from several papers.
Chain of UniProt P42336 (whole entry, unmodified, looked up): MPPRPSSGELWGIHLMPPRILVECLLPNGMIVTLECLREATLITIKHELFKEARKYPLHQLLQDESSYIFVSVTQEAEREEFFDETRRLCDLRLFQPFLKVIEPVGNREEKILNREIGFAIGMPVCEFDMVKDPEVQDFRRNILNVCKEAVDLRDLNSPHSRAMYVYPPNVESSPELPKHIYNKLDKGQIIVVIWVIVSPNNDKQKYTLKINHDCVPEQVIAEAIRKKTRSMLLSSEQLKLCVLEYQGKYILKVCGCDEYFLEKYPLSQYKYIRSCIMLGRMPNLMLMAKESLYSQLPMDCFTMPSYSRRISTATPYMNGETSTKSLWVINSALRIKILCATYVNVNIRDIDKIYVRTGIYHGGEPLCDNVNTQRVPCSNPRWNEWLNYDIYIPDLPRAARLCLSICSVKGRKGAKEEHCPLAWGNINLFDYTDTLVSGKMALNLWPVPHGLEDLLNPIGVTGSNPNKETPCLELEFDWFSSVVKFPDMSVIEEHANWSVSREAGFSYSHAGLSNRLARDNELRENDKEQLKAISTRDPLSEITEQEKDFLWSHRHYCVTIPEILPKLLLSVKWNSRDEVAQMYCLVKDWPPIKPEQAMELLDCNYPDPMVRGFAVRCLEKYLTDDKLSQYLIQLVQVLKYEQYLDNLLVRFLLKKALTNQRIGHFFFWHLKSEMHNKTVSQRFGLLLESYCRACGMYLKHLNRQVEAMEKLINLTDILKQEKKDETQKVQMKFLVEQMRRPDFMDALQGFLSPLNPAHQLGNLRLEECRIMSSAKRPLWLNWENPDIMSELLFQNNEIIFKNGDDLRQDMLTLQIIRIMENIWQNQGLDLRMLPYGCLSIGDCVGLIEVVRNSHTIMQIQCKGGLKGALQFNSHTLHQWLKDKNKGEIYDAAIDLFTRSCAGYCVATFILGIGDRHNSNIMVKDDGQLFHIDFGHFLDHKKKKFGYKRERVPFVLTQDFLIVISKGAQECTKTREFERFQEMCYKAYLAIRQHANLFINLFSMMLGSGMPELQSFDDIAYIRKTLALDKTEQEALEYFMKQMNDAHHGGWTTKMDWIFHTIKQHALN
Chain of UniProt Q92918 (whole entry, looked up): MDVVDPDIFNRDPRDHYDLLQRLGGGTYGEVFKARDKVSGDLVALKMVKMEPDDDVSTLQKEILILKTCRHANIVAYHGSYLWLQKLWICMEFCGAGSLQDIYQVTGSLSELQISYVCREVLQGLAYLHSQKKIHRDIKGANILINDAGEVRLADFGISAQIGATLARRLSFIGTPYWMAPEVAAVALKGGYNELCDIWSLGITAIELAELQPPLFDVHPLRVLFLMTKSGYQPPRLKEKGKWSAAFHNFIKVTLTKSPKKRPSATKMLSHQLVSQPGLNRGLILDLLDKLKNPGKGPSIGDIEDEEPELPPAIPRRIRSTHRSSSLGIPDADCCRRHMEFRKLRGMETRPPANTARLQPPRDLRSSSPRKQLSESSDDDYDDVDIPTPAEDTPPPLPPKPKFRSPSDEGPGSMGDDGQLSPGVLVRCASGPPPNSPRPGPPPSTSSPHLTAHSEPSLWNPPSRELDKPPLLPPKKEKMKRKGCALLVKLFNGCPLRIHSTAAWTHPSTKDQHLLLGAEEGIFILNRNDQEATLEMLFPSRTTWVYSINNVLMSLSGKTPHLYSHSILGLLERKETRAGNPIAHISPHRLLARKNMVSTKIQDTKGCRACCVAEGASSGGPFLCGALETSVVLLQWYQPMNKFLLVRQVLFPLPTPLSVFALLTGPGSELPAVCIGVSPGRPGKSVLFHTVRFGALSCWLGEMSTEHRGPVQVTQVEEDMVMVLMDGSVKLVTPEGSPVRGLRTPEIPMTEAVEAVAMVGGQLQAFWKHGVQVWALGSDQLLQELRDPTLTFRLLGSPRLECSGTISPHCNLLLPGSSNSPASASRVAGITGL
Chain of UniProt O33336 (whole entry, looked up): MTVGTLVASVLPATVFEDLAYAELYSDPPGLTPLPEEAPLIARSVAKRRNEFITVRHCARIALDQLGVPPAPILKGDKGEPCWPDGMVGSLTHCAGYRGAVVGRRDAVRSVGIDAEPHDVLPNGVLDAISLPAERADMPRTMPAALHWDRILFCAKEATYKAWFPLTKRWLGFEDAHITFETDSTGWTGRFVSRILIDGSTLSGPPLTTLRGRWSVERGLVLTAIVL
Chain of UniProt P11229 (whole entry, looked up): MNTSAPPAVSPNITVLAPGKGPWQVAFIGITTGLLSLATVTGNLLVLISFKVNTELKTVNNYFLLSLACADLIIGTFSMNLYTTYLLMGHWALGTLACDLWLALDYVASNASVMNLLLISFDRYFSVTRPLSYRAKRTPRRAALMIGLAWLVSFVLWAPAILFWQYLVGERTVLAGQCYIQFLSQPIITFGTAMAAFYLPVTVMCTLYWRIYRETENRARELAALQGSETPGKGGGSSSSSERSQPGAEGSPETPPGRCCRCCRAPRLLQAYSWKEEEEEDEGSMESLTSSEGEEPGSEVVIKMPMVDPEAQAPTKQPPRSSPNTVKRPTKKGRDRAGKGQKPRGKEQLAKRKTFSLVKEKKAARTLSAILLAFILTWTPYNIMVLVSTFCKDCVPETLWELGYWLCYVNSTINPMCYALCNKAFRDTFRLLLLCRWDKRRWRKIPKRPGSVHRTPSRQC
Chain of UniProt O60741 (whole entry, looked up): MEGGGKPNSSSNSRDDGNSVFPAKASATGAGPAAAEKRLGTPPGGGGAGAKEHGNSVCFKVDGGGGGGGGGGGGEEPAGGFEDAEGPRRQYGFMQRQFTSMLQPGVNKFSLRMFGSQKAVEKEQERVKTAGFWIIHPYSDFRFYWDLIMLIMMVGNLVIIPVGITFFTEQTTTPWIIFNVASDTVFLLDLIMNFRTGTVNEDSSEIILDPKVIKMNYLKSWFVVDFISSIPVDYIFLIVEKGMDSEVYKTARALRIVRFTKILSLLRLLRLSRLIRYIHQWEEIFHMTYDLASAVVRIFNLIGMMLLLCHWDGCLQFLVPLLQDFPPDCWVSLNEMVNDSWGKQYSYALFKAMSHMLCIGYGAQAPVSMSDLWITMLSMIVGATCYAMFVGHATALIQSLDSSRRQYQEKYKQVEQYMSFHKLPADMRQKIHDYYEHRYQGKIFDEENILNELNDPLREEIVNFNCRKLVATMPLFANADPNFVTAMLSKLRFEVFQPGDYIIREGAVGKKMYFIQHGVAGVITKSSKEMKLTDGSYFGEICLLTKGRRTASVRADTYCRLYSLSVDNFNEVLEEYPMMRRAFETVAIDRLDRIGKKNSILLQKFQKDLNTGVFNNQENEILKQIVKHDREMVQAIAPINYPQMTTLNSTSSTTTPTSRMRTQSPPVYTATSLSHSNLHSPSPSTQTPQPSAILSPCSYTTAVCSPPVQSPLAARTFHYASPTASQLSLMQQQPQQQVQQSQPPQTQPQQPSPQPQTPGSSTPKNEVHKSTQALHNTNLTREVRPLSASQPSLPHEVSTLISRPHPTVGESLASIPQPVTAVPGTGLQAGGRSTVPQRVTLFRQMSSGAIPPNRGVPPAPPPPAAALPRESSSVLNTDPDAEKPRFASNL
Chain of UniProt P41145 (whole entry, looked up): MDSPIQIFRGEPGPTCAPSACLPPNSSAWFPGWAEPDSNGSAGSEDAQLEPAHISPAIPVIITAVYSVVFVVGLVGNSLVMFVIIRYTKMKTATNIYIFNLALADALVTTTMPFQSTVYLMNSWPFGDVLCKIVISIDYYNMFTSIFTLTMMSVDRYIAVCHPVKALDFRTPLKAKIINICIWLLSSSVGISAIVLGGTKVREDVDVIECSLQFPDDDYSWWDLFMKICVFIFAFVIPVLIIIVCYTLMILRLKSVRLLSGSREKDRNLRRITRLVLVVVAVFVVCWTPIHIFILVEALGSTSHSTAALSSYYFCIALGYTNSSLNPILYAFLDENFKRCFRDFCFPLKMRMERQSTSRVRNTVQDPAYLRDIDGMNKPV
Chain of UniProt P34969 (whole entry, looked up): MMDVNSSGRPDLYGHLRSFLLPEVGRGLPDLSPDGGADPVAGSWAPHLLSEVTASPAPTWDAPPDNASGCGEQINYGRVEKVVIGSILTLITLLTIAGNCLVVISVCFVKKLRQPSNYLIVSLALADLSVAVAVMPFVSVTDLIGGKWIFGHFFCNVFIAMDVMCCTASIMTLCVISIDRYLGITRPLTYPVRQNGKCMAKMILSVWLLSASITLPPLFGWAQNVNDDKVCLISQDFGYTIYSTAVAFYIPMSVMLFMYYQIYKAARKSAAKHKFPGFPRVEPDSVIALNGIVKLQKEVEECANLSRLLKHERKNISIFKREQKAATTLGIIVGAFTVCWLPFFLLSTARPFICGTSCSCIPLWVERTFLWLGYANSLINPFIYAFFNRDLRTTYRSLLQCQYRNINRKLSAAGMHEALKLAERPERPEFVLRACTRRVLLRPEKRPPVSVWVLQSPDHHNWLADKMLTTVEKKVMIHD
Chain of UniProt Q13188 (whole entry, looked up): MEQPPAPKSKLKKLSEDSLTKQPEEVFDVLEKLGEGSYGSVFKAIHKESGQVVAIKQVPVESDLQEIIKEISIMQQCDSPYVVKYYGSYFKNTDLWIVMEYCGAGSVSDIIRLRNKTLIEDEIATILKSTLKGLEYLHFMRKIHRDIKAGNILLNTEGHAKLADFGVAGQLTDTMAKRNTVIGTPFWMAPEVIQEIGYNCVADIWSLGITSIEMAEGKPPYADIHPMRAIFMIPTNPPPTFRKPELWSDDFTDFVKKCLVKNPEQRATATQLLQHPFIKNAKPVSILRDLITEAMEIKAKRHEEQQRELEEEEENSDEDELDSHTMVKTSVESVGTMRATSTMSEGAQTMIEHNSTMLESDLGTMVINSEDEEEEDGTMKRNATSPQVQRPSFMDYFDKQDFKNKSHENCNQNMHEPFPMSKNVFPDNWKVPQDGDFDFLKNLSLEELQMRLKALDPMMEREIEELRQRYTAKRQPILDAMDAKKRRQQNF

Compound | target or system | test | test system | conditions | endpoint | value
CC(C)C[C@H](NC(=O)[C@H](Cc1ccccc1)NC(=O)[C@H](Cc1ccccc1)NC(=O)Cc1ccc(-c2ccccc2)cc1)C(=O)N[C@@H](CCCCN)C(=O)N[C@@H](CCCNC(=N)N)C(=O)N[C@H](C(=O)N[C@@H](Cc1c[nH]c2ccccc12)C(=O)N[C@@H](CCCCN)C(=O)N[C@@H](CCCNC(=N)N)C(=O)O)C(C)C | – | metabolic stability | monkey, liver microsomes | 45 min | compound remaining | 9.02%
N.N.[Cl][Pt][Cl] | Granta-519 | cell growth or viability, ATP luminescence | – | 10 µM, 72 h | inhibition | 82%
CN1CCC[C@H]1c1cccnc1 | HTR7 (Homo sapiens, UniProt P34969) | ligand displacement | – | 50 µM | inhibition | -10%
NS(=O)(=O)N=c1[nH]c2ccc(Cl)cc2c(=O)n1Cc1cccnc1 | 4'-phosphopantetheinyl transferase PptT (Mycobacterium tuberculosis, UniProt O33336) | enzyme activity, inhibitor, FP | – | – | IC50 | > 100 µM
C#Cc1n[nH]c2c(-c3cn(C(C)c4ccccn4)c(=O)[nH]c3=O)cc(F)cc12 (stereo not shown) | MAP4K1 (Homo sapiens, UniProt Q92918) | enzyme activity, inhibitor | – | 1 µM | inhibition | 11%
C#Cc1ccc2c(c1)C(c1ccccn1)=NCc1c(-c3cnco3)ncn1-2.Cl | – | – | water | 1 h, 37 °C | kinetic solubility | 3900 µg/mL
Cc1nnc(SCC2=C(C(=O)O)N3C(=O)[C@@H](NC(=O)Cn4cnnn4)[C@H]3SC2)s1 | Potassium/sodium hyperpolarization-activated cyclic nucleotide-gated channel 1 (Homo sapiens, UniProt O60741) | ion current, inhibitor | – | 3 µM | inhibition | -1.03%
CC(C)CC(=O)OC[C@H]1O[C@@](C#N)(c2ccc3c(N)ncnn23)[C@H](O)[C@@H]1O | CHRM1 (Homo sapiens, UniProt P11229) | cell-free assay | – | 20 µM | inhibition | -9%
Oc1cccc(N2C[C@H]3CC[C@@H](C2)N3CCCc2ccccc2)c1 | OPRK1 (Homo sapiens, UniProt P41145) | cAMP, agonist | – | – | Emax | 0%
Cc1nn(C)cc1-c1nc2c(N3CCN(Cc4ccc(Cl)cc4)CC3)c(Cl)cnc2[nH]1 | STK3 (Homo sapiens, UniProt Q13188) | binding, competition with immobilised ligand | – | 1 µM | remaining binding | 100%
COc1ncccc1-c1cnn2ccc(N3CCN(C(=O)OC(C)C)CC3)nc12 | MAP4K3 (Homo sapiens, UniProt Q8IVH8) | binding, competition with immobilised ligand | – | 1 µM | remaining binding | 74%
[2H]c1c([2H])c([C@]2([2H])CCCN2C(=O)C(C)(C)Oc2ccc3cn[nH]c3c2)c([2H])c([2H])c1C([2H])([2H])[2H] | BRAF (Homo sapiens, UniProt P15056) | binding, competition with immobilised ligand | – | 1 µM | remaining binding | 100%
Nc1ncc(-c2nc(N3CCOCC3)nc(N3CCOCC3)n2)c(C(F)F)n1 | PIK3CA (Homo sapiens, UniProt P42336, E542K) | binding, competition with immobilised ligand | – | 10 µM | remaining binding | 0%

A few entries again:
Compound | target or system | test | test system | conditions | endpoint | value
CN1CCC[C@H]1c1cccnc1 | HTR7 (Homo sapiens, UniProt P34969) | ligand displacement | – | 50 µM | inhibition | -10%
CC(C)CC(=O)OC[C@H]1O[C@@](C#N)(c2ccc3c(N)ncnn23)[C@H](O)[C@@H]1O | CHRM1 (Homo sapiens, UniProt P11229) | cell-free assay | – | 20 µM | inhibition | -9%
